Measurements from different studies.
Protocols differ between the studies behind these lines. “And” joins repeats or separate records; there may be more than shown. Numbers after ± are the reported error.

| Structure (SMILES) | target or system | test | system | conditions | quantity | value |
| --- | --- | --- | --- | --- | --- | --- |
| Cc1cc(C(C)(C)c2ccc(O)c(C)c2)ccc1O | HepG2 spheroids, dissociated | annexin V-FITC/PI flow cytometry |  | 0.1 µM, 24 h | early apoptotic cells | 12.5 ± 2.1% |
| N[C@@H](CC(=O)N1CCN(C(c2ccc(F)cc2)c2ccc(F)cc2)CC1)C(=O)N1Cc2ccccc2C1 | AML cell lines | cell viability, CellTiter-Glo |  |  | cytotoxic concentration | > 10 µM |
| CCOC(=O)Nc1ccc(NCc2ccc(F)cc2)nc1N | Plasmodium falciparum |  | D10 |  | IC50 | 6.31 µM |
| CC(C)C[C@H](NC(=O)[C@H](CCCNC(=N)N)NC(=O)[C@H](Cc1c[nH]c2ccccc12)NC(=O)[C@H](CCCNC(=N)N)NC(=O)[C@H](Cc1c[nH]c2ccccc12)NC(=O)[C@H](Cc1c[nH]c2ccccc12)NC(=O)[C@H](Cc1c[nH]c2ccccc12)NC(=O)[C@H](CCCNC(=N)N)NC(=O)[C@H](Cc1c[nH]c2ccccc12)NC(=O)[C@@H](N)CCCNC(=N)N)C(N)=O | PK-15 |  |  |  | LC50 | 344 µM |
| CC[C@H](C)[C@H](N)C(=O)N[C@H](C(=O)N[C@@H](C)C(=O)N[C@H](C(=O)N[C@H](C(=O)N[C@@H](CCCNC(=N)N)C(=O)N[C@@H](Cc1ccccc1)C(=O)N[C@@H](CO)C(=O)N[C@@H](CCCNC(=N)N)C(=O)N[C@@H](CCCNC(=N)N)C(=O)N[C@@H](CCCCN)C(=O)N[C@H](C(=O)N1CCC[C@H]1C(=O)N[C@@H](Cc1c[nH]c2ccccc12)C(=O)N[C@@H](CCC(N)=O)C(=O)N[C@@H](CCC(N)=O)C(=O)N[C@@H](CC(N)=O)C(=O)N[C@@H](Cc1ccccc1)C(=O)N[C@H](C(=O)N[C@@H](CC(N)=O)C(=O)N[C@@H](CC(N)=O)C(=O)N[C@@H](Cc1c[nH]cn1)C(=O)N[C@@H](CC(N)=O)C(=O)N1CCC[C@H]1C(=O)N[C@@H](CCCCN)C(=O)NCC(=O)N[C@@H](CCCNC(=N)N)C(=O)N[C@@H](CC(C)C)C(=O)N[C@@H](CCCNC(=N)N)C(=O)N[C@@H](CC(N)=O)C(=O)N[C@@H](CCC(N)=O)C(=O)N[C@@H](Cc1c[nH]cn1)C(=O)N[C@@H](CCCCN)C(=O)N[C@H](C(=O)N[C@@H](CO)C(=O)N[C@@H](CC(C)C)C(=O)N[C@@H](CCC(N)=O)C(=O)N[C@@H](CCCCN)C(=O)N[C@@H](CO)C(=O)N[C@H](C(=O)N[C@@H](C)C(=O)N[C@H](C(=O)N[C@@H](CCSC)C(=O)N[C@@H](CC(C)C)C(=O)N1CCC[C@H]1C(=O)N[C@@H](CCCCN)C(=O)O)C(C)C)[C@@H](C)O)C(C)C)C(C)C)[C@@H](C)CC)[C@@H](C)O)[C@@H](C)CC)[C@@H](C)CC | PMA-differentiated THP-1 | cell viability, MTT |  | 24 h | CC50 | 104 µM |
| Cn1c(C(=O)Nc2ccc3c(c2)OCCO3)cc2c(=O)n3ccccc3nc21 | Vero | MTT |  | 100 µM, 24 (unit not given) | viability | 43.4% |
| O=S(=O)(c1ccc(O)cc1)c1ccc(O)cc1 | HepG2 spheroids | annexin V-FITC/PI flow cytometry |  | 1 µM, 96 h | late apoptotic cells | 38.2 ± 4.7% |
| CC(C)C[C@H](NC(=O)[C@H](C)NC(=O)[C@@H](NC(=O)[C@H](CCCNC(=N)N)NC(=O)[C@H](CC(C)C)NC(=O)[C@H](Cc1c[nH]c2ccccc12)NC(=O)[C@@H]1CCCN1C(=O)[C@@H](N)CCCCN)C(C)C)C(=O)N[C@@H](CS)C(=O)N1CCC[C@H]1C(=O)NCC(=O)O | H9c2 | WST-1 |  | 32 µM, 24 h | viability | 98.5% and 101% and 111% |
| O=c1ccc2ccccc2o1 | HepG2 | refers to: cell count |  | concentration not given, 6 h, phospholipidosis and steatosis panel | probability of response | 0.39% |
| Oc1ccc(C(c2ccc(O)cc2)(C(F)(F)F)C(F)(F)F)cc1 | HepG2 spheroids | annexin V-FITC/PI flow cytometry |  | 40 µM, 24 h | necrotic cells | 6.66 ± 2.67% |
| CC[C@H](C)[C@H](NC(=O)CNC(=O)[C@H](CC(N)=O)NC(=O)[C@H](Cc1ccc(O)cc1)NC(=O)[C@H](CO)NC(=O)CNC(=O)[C@H](CCCNC(=N)N)NC(=O)[C@H](CCC(N)=O)NC(=O)[C@H](Cc1ccccc1)NC(=O)[C@H](Cc1ccccc1)NC(=O)[C@H](Cc1c[nH]cn1)NC(=O)[C@H](Cc1ccccc1)NC(=O)[C@@H](N)Cc1c[nH]c2ccccc12)C(=O)O | HUVEC | cytotoxicity, MTT |  | 24 h, 37 °C | IC50 | > 200 µM |
| COc1cc2c(OCCCN3CCOCC3)c3c(c(-c4ccc5c(c4)OCO5)c2cc1OC)C(=O)OC3 | HeLa |  |  | 24 h | CC50 | 36.6 ± 18.8 µM |
| NC(=NCc1ccccc1)NC(=O)c1nc(Cl)c(N)nc1N | Plasmodium falciparum |  | 7G8 |  | IC50 | 2 µM |
| O=c1cc(-c2ccc(O)cc2)oc2cc(O)cc(O)c12 | uninduced SH-SY5Y Aβ-GFP cells | cytotoxicity, MTT |  | 24 h | IC50 | 72 µM |

Some of these lines once more:
| Structure (SMILES) | target or system | test | system | conditions | quantity | value |
| --- | --- | --- | --- | --- | --- | --- |
| Oc1ccc(C(c2ccc(O)cc2)(C(F)(F)F)C(F)(F)F)cc1 | HepG2 spheroids | annexin V-FITC/PI flow cytometry |  | 40 µM, 24 h | necrotic cells | 6.66 ± 2.67% |
| CC[C@H](C)[C@H](NC(=O)CNC(=O)[C@H](CC(N)=O)NC(=O)[C@H](Cc1ccc(O)cc1)NC(=O)[C@H](CO)NC(=O)CNC(=O)[C@H](CCCNC(=N)N)NC(=O)[C@H](CCC(N)=O)NC(=O)[C@H](Cc1ccccc1)NC(=O)[C@H](Cc1ccccc1)NC(=O)[C@H](Cc1c[nH]cn1)NC(=O)[C@H](Cc1ccccc1)NC(=O)[C@@H](N)Cc1c[nH]c2ccccc12)C(=O)O | HUVEC | cytotoxicity, MTT |  | 24 h, 37 °C | IC50 | > 200 µM |
